Assay results gathered from unrelated publications.
Parts stem from different laboratories: compare values within a part only. Substitutions count along the parent as printed.
Sequence of UniProt P20309 (whole entry, looked up): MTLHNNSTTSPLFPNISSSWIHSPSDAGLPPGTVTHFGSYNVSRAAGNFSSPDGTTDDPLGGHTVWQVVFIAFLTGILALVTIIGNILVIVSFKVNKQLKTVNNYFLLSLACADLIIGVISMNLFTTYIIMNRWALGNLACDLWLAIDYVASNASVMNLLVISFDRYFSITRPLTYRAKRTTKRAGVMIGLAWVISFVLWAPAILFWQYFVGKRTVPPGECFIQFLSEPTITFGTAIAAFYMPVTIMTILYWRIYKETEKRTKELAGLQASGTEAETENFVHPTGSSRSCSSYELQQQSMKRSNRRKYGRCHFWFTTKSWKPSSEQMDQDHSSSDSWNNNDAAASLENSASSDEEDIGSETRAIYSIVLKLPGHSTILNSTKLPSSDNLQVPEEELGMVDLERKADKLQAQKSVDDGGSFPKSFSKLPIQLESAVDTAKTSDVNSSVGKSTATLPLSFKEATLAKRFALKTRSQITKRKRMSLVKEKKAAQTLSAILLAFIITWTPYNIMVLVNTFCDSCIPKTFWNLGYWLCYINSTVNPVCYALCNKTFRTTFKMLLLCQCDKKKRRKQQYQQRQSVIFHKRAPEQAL
Sequence of UniProt Q09013 (whole entry, looked up): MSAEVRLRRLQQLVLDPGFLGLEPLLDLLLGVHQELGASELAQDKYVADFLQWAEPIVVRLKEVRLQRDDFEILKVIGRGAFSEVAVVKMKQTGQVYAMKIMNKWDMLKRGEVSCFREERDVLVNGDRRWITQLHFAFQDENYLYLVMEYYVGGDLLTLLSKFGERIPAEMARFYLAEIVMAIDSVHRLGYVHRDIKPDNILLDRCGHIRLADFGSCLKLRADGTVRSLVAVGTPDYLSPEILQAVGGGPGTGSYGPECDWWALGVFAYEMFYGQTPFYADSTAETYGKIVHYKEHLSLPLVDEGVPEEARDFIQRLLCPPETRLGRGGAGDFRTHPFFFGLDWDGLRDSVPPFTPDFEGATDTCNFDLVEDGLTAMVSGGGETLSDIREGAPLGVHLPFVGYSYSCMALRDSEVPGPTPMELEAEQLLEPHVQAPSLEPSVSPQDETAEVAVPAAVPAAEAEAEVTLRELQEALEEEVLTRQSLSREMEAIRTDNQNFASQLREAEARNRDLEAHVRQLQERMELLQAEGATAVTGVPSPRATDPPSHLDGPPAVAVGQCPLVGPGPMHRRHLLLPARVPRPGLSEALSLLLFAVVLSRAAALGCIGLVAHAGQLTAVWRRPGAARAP
Sequence of UniProt P41146 (whole entry, looked up): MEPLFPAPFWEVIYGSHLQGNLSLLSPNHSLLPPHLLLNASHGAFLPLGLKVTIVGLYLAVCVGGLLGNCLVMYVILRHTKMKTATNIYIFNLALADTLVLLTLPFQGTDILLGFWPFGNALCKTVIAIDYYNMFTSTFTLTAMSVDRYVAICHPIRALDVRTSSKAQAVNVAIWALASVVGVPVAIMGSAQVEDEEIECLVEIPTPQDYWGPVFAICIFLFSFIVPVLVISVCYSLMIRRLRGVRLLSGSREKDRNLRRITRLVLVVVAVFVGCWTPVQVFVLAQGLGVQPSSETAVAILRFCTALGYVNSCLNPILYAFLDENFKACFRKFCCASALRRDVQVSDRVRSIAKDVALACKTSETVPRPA
Sequence of UniProt P41145 (whole entry, looked up): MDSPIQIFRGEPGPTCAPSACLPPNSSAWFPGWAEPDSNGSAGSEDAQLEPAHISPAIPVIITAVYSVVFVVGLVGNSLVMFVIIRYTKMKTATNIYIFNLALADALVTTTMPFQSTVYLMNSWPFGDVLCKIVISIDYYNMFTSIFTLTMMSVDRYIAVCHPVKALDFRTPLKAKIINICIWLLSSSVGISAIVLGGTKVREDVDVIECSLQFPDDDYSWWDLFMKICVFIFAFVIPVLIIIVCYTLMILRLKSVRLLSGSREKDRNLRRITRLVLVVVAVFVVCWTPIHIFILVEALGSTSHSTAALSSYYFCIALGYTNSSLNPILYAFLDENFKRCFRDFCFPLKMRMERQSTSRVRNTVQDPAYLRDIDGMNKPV
Sequence of UniProt P11802 (whole entry, looked up): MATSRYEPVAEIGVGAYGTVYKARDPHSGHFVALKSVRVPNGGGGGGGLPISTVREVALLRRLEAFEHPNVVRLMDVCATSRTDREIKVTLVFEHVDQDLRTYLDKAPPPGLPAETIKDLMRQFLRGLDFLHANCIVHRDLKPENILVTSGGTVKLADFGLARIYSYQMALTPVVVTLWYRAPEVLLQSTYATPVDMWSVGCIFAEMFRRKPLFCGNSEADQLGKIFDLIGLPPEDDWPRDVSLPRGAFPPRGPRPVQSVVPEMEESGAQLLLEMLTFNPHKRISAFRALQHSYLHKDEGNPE
Sequence of UniProt P28335 (whole entry, looked up): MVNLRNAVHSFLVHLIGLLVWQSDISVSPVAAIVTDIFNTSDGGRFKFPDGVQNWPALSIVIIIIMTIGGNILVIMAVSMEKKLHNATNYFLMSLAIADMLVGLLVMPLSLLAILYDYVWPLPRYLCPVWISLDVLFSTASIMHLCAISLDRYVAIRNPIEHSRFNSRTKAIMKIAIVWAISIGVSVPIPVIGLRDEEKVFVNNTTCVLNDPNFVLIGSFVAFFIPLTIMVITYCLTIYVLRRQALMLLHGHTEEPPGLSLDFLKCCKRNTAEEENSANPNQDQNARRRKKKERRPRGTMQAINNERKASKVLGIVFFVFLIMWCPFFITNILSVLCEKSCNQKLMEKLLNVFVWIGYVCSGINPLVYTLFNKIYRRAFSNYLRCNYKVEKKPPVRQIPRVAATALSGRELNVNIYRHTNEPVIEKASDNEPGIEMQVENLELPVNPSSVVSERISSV
Sequence of UniProt Q08499 (whole entry, looked up): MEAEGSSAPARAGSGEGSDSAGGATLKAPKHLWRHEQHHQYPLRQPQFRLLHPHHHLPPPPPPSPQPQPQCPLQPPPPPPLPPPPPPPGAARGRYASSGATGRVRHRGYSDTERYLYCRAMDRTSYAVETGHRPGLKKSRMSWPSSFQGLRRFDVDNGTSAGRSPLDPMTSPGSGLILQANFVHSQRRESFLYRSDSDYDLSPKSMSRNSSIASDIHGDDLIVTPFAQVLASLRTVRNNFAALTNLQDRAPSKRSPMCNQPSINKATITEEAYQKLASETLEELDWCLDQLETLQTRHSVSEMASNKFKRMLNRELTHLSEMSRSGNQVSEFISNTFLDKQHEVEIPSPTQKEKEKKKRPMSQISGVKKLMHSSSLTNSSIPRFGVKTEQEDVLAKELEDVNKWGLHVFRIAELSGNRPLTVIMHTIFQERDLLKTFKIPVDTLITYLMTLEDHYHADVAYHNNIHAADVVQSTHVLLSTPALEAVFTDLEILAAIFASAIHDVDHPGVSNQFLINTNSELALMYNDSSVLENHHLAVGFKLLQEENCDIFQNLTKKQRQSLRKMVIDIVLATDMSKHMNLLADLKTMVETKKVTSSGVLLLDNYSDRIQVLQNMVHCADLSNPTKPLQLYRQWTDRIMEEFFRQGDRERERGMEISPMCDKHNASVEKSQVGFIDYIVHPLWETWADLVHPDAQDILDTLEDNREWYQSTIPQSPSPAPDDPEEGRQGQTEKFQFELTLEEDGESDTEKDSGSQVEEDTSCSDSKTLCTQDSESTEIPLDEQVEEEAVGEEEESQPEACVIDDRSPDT
Sequence of UniProt P46734 (whole entry, looked up): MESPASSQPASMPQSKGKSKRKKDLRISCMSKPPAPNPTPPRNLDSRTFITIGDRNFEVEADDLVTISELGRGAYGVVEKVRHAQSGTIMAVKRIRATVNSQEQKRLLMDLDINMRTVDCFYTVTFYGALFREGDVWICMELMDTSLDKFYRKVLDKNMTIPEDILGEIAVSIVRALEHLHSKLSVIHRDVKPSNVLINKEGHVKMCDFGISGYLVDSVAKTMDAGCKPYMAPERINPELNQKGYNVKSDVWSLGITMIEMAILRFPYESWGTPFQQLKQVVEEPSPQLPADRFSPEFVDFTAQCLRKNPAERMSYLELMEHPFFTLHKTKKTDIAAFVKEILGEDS
Sequence of UniProt P08913 (whole entry, looked up): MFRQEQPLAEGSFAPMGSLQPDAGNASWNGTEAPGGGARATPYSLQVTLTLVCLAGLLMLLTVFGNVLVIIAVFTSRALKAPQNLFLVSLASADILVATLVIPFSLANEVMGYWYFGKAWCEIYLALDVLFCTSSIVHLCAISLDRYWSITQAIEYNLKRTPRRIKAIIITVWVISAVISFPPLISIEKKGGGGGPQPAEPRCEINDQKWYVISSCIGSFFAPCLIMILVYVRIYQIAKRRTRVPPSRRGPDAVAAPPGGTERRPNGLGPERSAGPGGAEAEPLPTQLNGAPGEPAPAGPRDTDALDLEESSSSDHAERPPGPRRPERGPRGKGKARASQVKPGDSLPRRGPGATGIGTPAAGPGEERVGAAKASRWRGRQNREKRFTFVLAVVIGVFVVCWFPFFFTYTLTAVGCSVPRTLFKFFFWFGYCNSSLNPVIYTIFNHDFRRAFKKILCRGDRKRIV

Series 1
Target: Calcium/calmodulin-dependent protein kinase type II subunit alpha (CAMK2A, Homo sapiens, UniProt Q9UQM7)
Sequence of UniProt Q9UQM7 (whole entry, looked up): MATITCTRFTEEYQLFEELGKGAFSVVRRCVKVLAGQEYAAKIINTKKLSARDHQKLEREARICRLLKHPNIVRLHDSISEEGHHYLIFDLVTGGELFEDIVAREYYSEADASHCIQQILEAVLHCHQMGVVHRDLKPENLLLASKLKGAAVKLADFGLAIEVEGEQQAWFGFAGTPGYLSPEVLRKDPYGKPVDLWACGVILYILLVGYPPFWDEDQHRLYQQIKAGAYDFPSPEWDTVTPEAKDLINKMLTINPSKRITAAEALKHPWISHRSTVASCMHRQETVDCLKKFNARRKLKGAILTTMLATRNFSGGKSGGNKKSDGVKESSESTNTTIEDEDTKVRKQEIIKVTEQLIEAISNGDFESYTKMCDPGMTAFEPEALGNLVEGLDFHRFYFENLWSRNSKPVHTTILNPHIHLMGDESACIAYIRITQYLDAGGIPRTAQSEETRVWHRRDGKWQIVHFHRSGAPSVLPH
Read-out: enzyme activity
Action: inhibitor
Tested at: 10 µM
The inhibition of `CSCC[C@H](NC=O)C(=O)O` is reported as -42%.
`C[C@@H](N[C@H]1CCN(c2ccc(CC(=O)O)cc2)C1)c1cccc2ccccc12` has an inhibition of -4%.
`Nc1ccn([C@@H]2O[C@H](COP(=O)(O)OP(=O)(O)O)[C@@H](O)[C@H]2O)c(=O)n1` gave an inhibition of -1%.
The inhibition of `CCc1ccc(C=O)cc1` is reported as -24%.
The inhibition of `CC(=O)OCC(=O)[C@@]1(OC(C)=O)[C@@H](C)C[C@H]2[C@@H]3C[C@H](F)C4=CC(=O)C=C[C@]4(C)[C@@]3(F)[C@@H](O)C[C@@]21C` is reported as 7%.
With `COc1cc2c(O)c3c(c(-c4ccc5c(c4)OCO5)c2cc1OC)C(=O)OC3` the inhibition was -27%.
For `C[C@@H]1CC[C@@]2(NC1)O[C@H]1C[C@H]3[C@@H]4CC=C5C[C@@H](O[C@@H]6O[C@H](CO)[C@H](O)[C@H](O[C@@H]7O[C@H](CO)[C@@H](O)[C@H](O)[C@H]7O)[C@H]6O[C@@H]6O[C@@H](C)[C@H](O)[C@@H](O)[C@H]6O)CC[C@]5(C)[C@H]4CC[C@]3(C)[C@H]1[C@@H]2C`, the inhibition was -12%.
`O=C1CC[C@@H](C(=O)N2CSC[C@H]2C(=O)O)N1` has an inhibition of 1%.

Series 2
Structure (SMILES): CNC(=O)c1ccc(-c2cnn3ccc(C(=O)N(C)c4ccc(Cl)c(C(=O)O)c4)cc23)cc1
It gave > 30 µM for IC50 (Alpha-2A adrenergic receptor (ADRA2A, Homo sapiens, UniProt P08913); cell-free assay).
For Calcium/calmodulin-dependent protein kinase type II subunit delta (CAMK2D, Homo sapiens, UniProt Q13557); enzyme activity, inhibitor: IC50 read > 30 µM.
For Cyclin-dependent kinase 4 (CDK4, Homo sapiens, UniProt P11802); enzyme activity, inhibitor: IC50 read > 30 µM.
For Dual specificity mitogen-activated protein kinase kinase 3 (MAP2K3, Homo sapiens, UniProt P46734); enzyme activity, inhibitor: IC50 read > 30 µM.
Vascular endothelial growth factor receptor 2 (KDR, Homo sapiens, UniProt P35968); enzyme activity, inhibitor — IC50: > 30 µM.
It gave > 30 µM for IC50 (Myotonin-protein kinase (DMPK, Homo sapiens, UniProt Q09013); enzyme activity, inhibitor).
The IC50 was > 30 µM (Progesterone receptor (PGR, Homo sapiens, UniProt P06401); cell-free assay).
The IC50 was > 30 µM (Mitogen-activated protein kinase 1 (MAPK1, Homo sapiens, UniProt P28482); enzyme activity, inhibitor).
3',5'-cyclic-AMP phosphodiesterase 4D (PDE4D, Homo sapiens, UniProt Q08499); cell-free assay, inhibitor — IC50: > 30 µM.

Series 3
Compound: CC(=O)Nc1c(C(C)=O)c(=O)n(C)c2nc(-c3ccc(Cl)cc3Cl)c(-c3ccc(Cl)cc3)cc12
Read-out: cell-free assay
Tested at: 10 µM
The inhibition was 8.16% (Mu-type opioid receptor (OPRM1, Homo sapiens, UniProt P35372)).
It gave 17.5% for inhibition (5-hydroxytryptamine receptor 2C (HTR2C, Homo sapiens, UniProt P28335)).
For D(1B) dopamine receptor (DRD5, Homo sapiens, UniProt P21918): inhibition read 5.24%.
Nociceptin receptor (OPRL1, Homo sapiens, UniProt P41146) — inhibition: -68.2%.
The inhibition was 7.95% (Kappa-type opioid receptor (OPRK1, Homo sapiens, UniProt P41145)).
The inhibition was 21.8% (5-hydroxytryptamine receptor 2A (HTR2A, Homo sapiens, UniProt P28223)).
Delta-type opioid receptor (OPRD1, Homo sapiens, UniProt P41143) — inhibition: -2.35%.
Muscarinic acetylcholine receptor M3 (CHRM3, Homo sapiens, UniProt P20309) — inhibition: -6.59%.
It gave -3.7% for inhibition (Muscarinic acetylcholine receptor M1 (CHRM1, Homo sapiens, UniProt P11229)).

Series 4
Target: vanadate, free oxyanion
Method: microfluidic competitive inhibition
Sample: in vitro, cell-free expressed
Tested at: not given
Setting: derived from inhibition constants, unchanged parent 676 nM
Reading: lower = stronger binding
Starting sequence: PafA, mature enzyme, eGFP fusion (Elizabethkingia meningoseptica, UniProt Q9KJX5); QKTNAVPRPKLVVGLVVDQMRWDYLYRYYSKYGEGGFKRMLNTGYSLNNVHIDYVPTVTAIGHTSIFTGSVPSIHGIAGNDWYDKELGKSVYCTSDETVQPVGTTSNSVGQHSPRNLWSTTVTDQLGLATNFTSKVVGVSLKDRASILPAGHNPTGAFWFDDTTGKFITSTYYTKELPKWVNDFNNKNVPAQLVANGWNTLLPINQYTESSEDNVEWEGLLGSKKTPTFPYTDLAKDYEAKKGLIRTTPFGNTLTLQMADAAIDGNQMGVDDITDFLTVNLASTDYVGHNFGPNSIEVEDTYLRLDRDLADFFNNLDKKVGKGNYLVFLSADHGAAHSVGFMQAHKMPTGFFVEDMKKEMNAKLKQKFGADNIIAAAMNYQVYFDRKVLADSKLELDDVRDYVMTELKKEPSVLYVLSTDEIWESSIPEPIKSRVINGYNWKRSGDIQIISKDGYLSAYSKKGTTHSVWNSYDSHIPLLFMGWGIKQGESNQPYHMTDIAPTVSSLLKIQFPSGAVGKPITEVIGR
For `M258V`, “oxyanion analog dissociation constant” read 1.06 µM.
For `P230V`, “oxyanion analog dissociation constant” read 806 nM.
`S425G` — result for “oxyanion analog dissociation constant”: 603 nM.
For `K452V`, “oxyanion analog dissociation constant” read 682 nM.
`V71G`: “oxyanion analog dissociation constant” 678 nM.
Under “oxyanion analog dissociation constant”, `M347V` is recorded as 684 nM.
For `I66V`, “oxyanion analog dissociation constant” read 630 nM.
`T253G`: “oxyanion analog dissociation constant” 624 nM.

A few entries again (series 3):
The inhibition was 21.8% (5-hydroxytryptamine receptor 2A (HTR2A, Homo sapiens, UniProt P28223)).
Nociceptin receptor (OPRL1, Homo sapiens, UniProt P41146) — inhibition: -68.2%.
Muscarinic acetylcholine receptor M3 (CHRM3, Homo sapiens, UniProt P20309) — inhibition: -6.59%.
The inhibition was 8.16% (Mu-type opioid receptor (OPRM1, Homo sapiens, UniProt P35372)).
